{"data": "Assay results of several laboratories", "note": "Numbered parts are unrelated; each lists some results of a single study. Substitutions count along the parent as printed."}
{"data": "Block 1", "target": "CCNA2, cyclin fold, Cln2 fusion (human)", "method": "yeast growth competition, sequencing", "medium": "yeast", "setting": "strong parent motif", "reference": "not given", "direction": "higher = stronger binding", "parent": "SCAPER docking peptide (human); SNARRSLNFGGST; partner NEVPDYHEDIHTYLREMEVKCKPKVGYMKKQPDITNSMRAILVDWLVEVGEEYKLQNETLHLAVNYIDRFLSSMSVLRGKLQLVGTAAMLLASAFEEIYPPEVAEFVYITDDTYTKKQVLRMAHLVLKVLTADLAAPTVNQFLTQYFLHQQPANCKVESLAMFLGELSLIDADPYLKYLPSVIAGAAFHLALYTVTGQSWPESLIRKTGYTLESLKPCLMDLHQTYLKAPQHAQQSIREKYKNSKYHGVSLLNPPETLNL"}
{"Change": "S1R", "normalised enrichment score": 6.4}
{"Change": "G10M", "normalised enrichment score": 5.8}
{"Change": "A3L", "normalised enrichment score": 1.66}
{"Change": "R5W", "normalised enrichment score": 0.404}
{"Change": "G10V", "normalised enrichment score": 4.81}
{"Change": "T13F", "normalised enrichment score": 6}
{"Change": "S1E", "normalised enrichment score": 4.09}
{"Change": "R4I", "normalised enrichment score": 3.78}
{"Change": "G11T", "normalised enrichment score": 6.82}
{"Change": "R4W", "normalised enrichment score": 1.79}
{"Change": "N2G", "normalised enrichment score": 6.82}
{"Change": "G11C", "normalised enrichment score": 6.47}
{"Change": "G11S", "normalised enrichment score": 6.55}
{"Change": "S1H", "normalised enrichment score": 5.76}
{"Change": "F9D", "normalised enrichment score": 0.251}
{"data": "Block 2", "target": "RING finger protein unkempt homolog, zinc fingers 1-6, GST-SBP tag (UNK, Homo sapiens, UniProt Q9C0B0, residues 30-357)", "method": "RNA Bind-n-Seq", "form": "RNA", "medium": "in vitro", "tested at": "not given", "setting": "RNA with constant flanks, human and mouse sites, ends assumed", "reference": "input RNA pool", "direction": "higher = stronger binding", "shared flanks, not repeated": "GGGAGUUCUACAGUCCGACGAUC … CAACAGAGGAUUGAGCAUCA", "Construct (chain)": "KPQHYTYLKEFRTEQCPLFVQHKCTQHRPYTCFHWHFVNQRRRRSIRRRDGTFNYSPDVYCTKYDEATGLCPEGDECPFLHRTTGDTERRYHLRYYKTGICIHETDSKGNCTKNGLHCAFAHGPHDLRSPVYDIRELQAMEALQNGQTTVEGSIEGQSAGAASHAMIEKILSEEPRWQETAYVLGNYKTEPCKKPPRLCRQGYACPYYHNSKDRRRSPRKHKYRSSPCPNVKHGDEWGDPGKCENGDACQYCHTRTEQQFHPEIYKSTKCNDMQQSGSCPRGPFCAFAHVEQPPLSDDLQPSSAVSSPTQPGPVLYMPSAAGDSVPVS"}
{"Sequence": "CGCAUGCAGCAGAUGGUGGGCCAGCUGGGCAUCCUGACGCCGUCCCUCACAUUGCCCUUCAGCCCCUACAGUGCCUACGCCCAGGCUCUCAUGCAACAGCAGACAACAGUCCUGUCCACC", "bound/input enrichment [ratio]": 0.192}
{"Sequence": "AAGCCCUUGUGCCCUUGUCUUCAAGAAGUUCCAAAUCACCUGUUUUCCAAAGGUCCAGCAUUUUGUGGGGACAAGGCCUUGCCUUUGGCUCAUCAGAAGACCUGUCUUUCCAUCCUACUG", "bound/input enrichment [ratio]": 0.085}
{"Sequence": "GGACUUAUGGGGAGCCCGAGUCUGCCGGCCCGUCCAGGGCUGUCCGCCAGUCAGUGACUUCAUUCCCAGAUGCUGACGCUUUCCAUCACCAGGUGCAUGAUGACGAUCUUUUGUCUUCUU", "bound/input enrichment [ratio]": 0.226}
{"Sequence": "GAGCAGAGAGUGGUGAGGCCAGCCACUGCCUGUGCGUGCAGUGCAGUGUUGGUAAGAGAAGCCUACCUAGGAGCUGGUGAUGAUGAAGGCUGGGCUGGGAAAGCAUUCUCUGUCCUGCUC", "bound/input enrichment [ratio]": 0.14}
{"Sequence": "AUUCUCUCUUCUCCUCCAGACACAAUGGCACUGCUUAUCUCCGAAAUGGUGUGAUCGUCUCCUCAUUGAGCAGCGGCUGCCACCGCGCUGUGGGUAGUGUGUGACCGUGGCUGUACUGUA", "bound/input enrichment [ratio]": 0.352}
{"Sequence": "GGAGCUUUAUCUAAGGCUAUUGACAGAGGAACAAGGGGCAUUAGUUUUGUCCUCAGUGCGUUAGUAUUUAAUCUUCUCCCUAUUGUGUUUGAGAUGAUGCUUGUCAGUAGUGUUUUGUAU", "bound/input enrichment [ratio]": 15.4}
{"Sequence": "CUUACCAAACACUUGCUGAAGUCAGUGUGUACUGAUAUCACUAACCUCAUUUUCAACUUCUUAGCUUCGGAUUUAAUGAUGGCAGUAGACGAUCCUGCAGCCAUUACAAGUGAAAUAAGA", "bound/input enrichment [ratio]": 0.323}
{"Sequence": "CCAACCAUAACAUCCAAGUCCAGUGUCAUUUUUCUGCUCACAAGUUUAAAGUCAGCACUUAAAAGAACAGCAACAGAUGAUUGAGAAAGAAAUGUAAAGAAGGUUCUCUUUGUGUGAGUA", "bound/input enrichment [ratio]": 0.189}
{"data": "Block 3", "target": "ABI1, truncated, D143A, DHFR fusion (Arabidopsis thaliana)", "method": "DHFR PCA, deep sequencing", "medium": "yeast", "setting": "methotrexate growth selection, single substitutions", "with": "(+)-ABA 17 µM", "reference": "wild-type fitted maximum", "direction": "higher = stronger binding", "parent": "PYL1, truncated, DHFR fusion (Arabidopsis thaliana); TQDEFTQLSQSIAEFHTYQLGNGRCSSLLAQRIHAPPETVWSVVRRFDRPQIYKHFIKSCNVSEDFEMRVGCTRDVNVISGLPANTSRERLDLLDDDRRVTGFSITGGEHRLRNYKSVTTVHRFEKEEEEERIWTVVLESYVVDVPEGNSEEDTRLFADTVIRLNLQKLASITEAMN"}
{"Change": "S80W", "relative binding score": "11.6%"}
{"Change": "N85L", "relative binding score": "82.6%"}
{"Change": "V100K", "relative binding score": "3.99%"}
{"Change": "L28E", "relative binding score": "6.94%"}
{"Change": "G148R", "relative binding score": "34.3%"}
{"Change": "S80K", "relative binding score": "19.5%"}
{"Change": "S117P", "relative binding score": "27.1%"}
{"Change": "D153G", "relative binding score": "0.351%"}
{"Change": "E131R", "relative binding score": "85.1%"}
{"Change": "C72L", "relative binding score": "49.1%"}
{"Change": "M68G", "relative binding score": "61.6%"}
{"Change": "R46V", "relative binding score": "25.8%"}
{"Change": "T1R", "relative binding score": "76.8%"}
{"Change": "P146W", "relative binding score": "7.32%"}
{"Change": "H122D", "relative binding score": "45.6%"}
{"Change": "A84G", "relative binding score": "76.3%"}
{"Change": "S9M", "relative binding score": "67.7%"}
{"Change": "D65F", "relative binding score": "58.2%"}
{"Change": "L29Y", "relative binding score": "23.7%"}
{"Change": "A170G", "relative binding score": "65%"}
{"Change": "L164S", "relative binding score": "80.1%"}
{"Change": "I57D", "relative binding score": "-19.5%"}
{"Change": "L156E", "relative binding score": "61.5%"}
{"data": "Block 4", "target": "Ras GTPase-activating protein-binding protein 1, full length (G3BP1, Homo sapiens, UniProt Q13283)", "method": "RNA Bind-n-Seq", "form": "RNA", "medium": "in vitro", "tested at": "200 nM", "setting": "whole 134-nt RNA, ends assumed", "with": "150 mM LiCl", "reference": "input library", "direction": "higher = stronger binding", "all molecules": "7-deaza-guanosine replaces G", "shared flanks, not repeated": "GGGAGUUCUACAGUCCGACGAUC … UGGAAUUCUCGGGUGUCAAGG", "sequence of UniProt Q13283 (whole entry, looked up)": "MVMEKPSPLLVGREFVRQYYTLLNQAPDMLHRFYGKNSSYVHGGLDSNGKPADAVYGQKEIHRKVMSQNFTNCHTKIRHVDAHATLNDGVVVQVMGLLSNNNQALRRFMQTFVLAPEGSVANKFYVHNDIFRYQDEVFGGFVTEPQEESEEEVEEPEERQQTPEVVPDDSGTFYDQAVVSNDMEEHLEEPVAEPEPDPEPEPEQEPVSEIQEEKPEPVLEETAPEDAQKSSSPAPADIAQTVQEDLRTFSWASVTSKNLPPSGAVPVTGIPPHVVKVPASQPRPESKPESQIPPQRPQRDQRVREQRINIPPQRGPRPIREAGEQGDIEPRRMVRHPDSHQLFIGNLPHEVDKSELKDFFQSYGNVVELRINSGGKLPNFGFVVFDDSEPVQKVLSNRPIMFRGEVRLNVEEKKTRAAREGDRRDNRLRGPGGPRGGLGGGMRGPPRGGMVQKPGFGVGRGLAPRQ"}
{"Sequence": "CUCAAGUCCUGUGCUACACAUCGUAUGUACCGAAUCGGGUGGGUUUGGGUGGGAAAGUAUUAUGUUACGCCGUUCGGAUCUGCACUUCCA", "log2 enrichment": 0.0292}
{"Sequence": "GUCCUGUGCUACACAUCGUAUGUACCGAAUCGGAAAAAAAGGAAAAAGGAAAAAAAGGAAAGUAUUAUGUUACGCCGUUCGGAUCUGCAC", "log2 enrichment": -0.741}
{"Sequence": "CCUGUGCUACACAUCGUAUGUACCGAAUCGGGGCCCCCCGGGGCCCCCCGGGGCCCCCCGGAAAGUAUUAUGUUACGCCGUUCGGAUCUG", "log2 enrichment": -1.29}
{"Sequence": "UCAAGUCCUGUGCUACACAUCGUAUGUACCGAAUCGGGGAAGGGGAAGGGAAGGGAAAGUAUUAUGUUACGCCGUUCGGAUCUGCACUUC", "log2 enrichment": -0.256}
{"Sequence": "CUCAAGUCCUGUGCUACACAUCGUAUGUACCGAAUCGGGUUUGGUUUGGUUUGGAAAGUAUUAUGUUACGCCGUUCGGAUCUGCACUUCC", "log2 enrichment": 0.177}
{"Sequence": "AGUCCUGUGCUACACAUCGUAUGUACCGAAUCGGUUUUUUUGGUUUUUGGUUUUUGGAAAGUAUUAUGUUACGCCGUUCGGAUCUGCACU", "log2 enrichment": -1.5}
{"Sequence": "AGAUGAACAAGAGAACUGGGCAACCCAUGAUCCACAUCUACCUGGACAAGGAAACAGGAAAGCCCAAAGGCGAUGCCACAGUGUCCUAUG", "log2 enrichment": -0.841}
{"Sequence": "AGUCCUGUGCUACACAUCGUAUGUACCGAAUCGGUUUUUUUGGAAAAAAAGGUUUGGAAAGUAUUAUGUUACGCCGUUCGGAUCUGCACU", "log2 enrichment": -3.48}
{"note": "A few entries again (block 4):"}
{"Sequence": "AGAUGAACAAGAGAACUGGGCAACCCAUGAUCCACAUCUACCUGGACAAGGAAACAGGAAAGCCCAAAGGCGAUGCCACAGUGUCCUAUG", "log2 enrichment": -0.841}
{"Sequence": "CUCAAGUCCUGUGCUACACAUCGUAUGUACCGAAUCGGGUGGGUUUGGGUGGGAAAGUAUUAUGUUACGCCGUUCGGAUCUGCACUUCCA", "log2 enrichment": 0.0292}
{"Sequence": "GUCCUGUGCUACACAUCGUAUGUACCGAAUCGGAAAAAAAGGAAAAAGGAAAAAAAGGAAAGUAUUAUGUUACGCCGUUCGGAUCUGCAC", "log2 enrichment": -0.741}
